Experimental data from different studies.
Parts stem from different laboratories: compare values within a part only. Positions count from the first letter of the parent shown.

Series 1
Target: Interferon regulatory factor 5, full length, phosphomimetic (IRF5, Homo sapiens, UniProt Q13568-2, residues 1-514, S451D/S453D/S456D/S462D)
Technique: protein-binding microarray
Form: double-stranded DNA, one strand shown
Sample: in vitro
Concentration: 940 nM top
Setting: 60-bp whole probe
Added: salmon DNA 0.4 mg/ml
Relative to: random background probes
Direction: higher = stronger binding
All sequences stand within: GCCTAGCAC … GTCTTGATTCGCTTGACGCTGCTG
Oligonucleotide	fitted relative affinity [z-score]
TTCCTTATTGCTTCCTCTTTGTGCTAG	1.92
TTAGGTATCGAGTATCGGTTAGTGCTA	6.4
TCATTTTCCATTTTGTGACTGTGCTAG	1.18
TCAAATACAAGTTTCTCACTGTGCTAG	0.73
TCACGTCTCTATCAAAAACTGTGCTAG	1.01
CACGGTATCGGACTGGGGACGTGCTAG	2.29
TTATGTTTCGACACTGGGTTAGTGCTA	3.74
ACTTGTATTTGTCCCTATTTGTGCTAG	1.46
GACGGTTCCGGTTTCGGGAGGTGCTAG	4.98
TCACTTTCCTTACTTCCCACTGTGCTA	2.47
TAAGGTATAAACTTGGGAAAGTGCTAG	-0.488
TTAGGTCTCATTATCCTTTAGTGCTAG	1.94
GGCGATTTCAGACTGGAGACGTGCTAG	-0.652
TCAGAATTTACTTTCTACGTGTGCTAG	0.664
TCACCATTAAATTTTAAACTGTGCTAG	0.447
GACGGACTGAGTCTCGAGACGTGCTAG	0.342
GACGGTATCGACTATTGGGACGTGCTA	4.49
GACGATTTCGGTATCGAGACGTGCTAG	3.9
GACGGTATCGACACTGTGGACGTGCTA	3.89

Series 2
Target: RING finger protein unkempt homolog, zinc fingers 1-6, GST-SBP tag (UNK, Homo sapiens, UniProt Q9C0B0, residues 30-357)
Technique: RNA Bind-n-Seq
Form: RNA
Sample: in vitro
Concentration: not given
Setting: RNA with constant flanks, human-mouse chimeric sites, ends assumed
Relative to: input RNA pool
Direction: higher = stronger binding
All sequences stand within: GGGAGUUCUACAGUCCGACGAUC … CAACAGAGGAUUGAGCAUCA
Target sequence (chain): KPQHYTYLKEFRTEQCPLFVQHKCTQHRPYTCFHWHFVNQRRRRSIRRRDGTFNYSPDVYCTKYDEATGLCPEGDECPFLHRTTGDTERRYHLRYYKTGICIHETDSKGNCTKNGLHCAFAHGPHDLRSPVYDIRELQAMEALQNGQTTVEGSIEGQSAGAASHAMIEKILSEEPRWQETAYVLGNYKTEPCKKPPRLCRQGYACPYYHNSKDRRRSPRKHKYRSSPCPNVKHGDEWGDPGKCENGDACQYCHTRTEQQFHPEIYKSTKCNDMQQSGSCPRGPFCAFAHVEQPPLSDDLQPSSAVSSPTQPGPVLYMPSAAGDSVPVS
Oligonucleotide	bound/input enrichment [ratio]
GAUAAGAAAAGCUUGUUGGAGACCCGCUUGCAUGUCACUGGUAGAGAACUGAGGUCCCAAAUAGCUGAAACUUUCGGAUUUCAAGAAAAUUACAUCAAGAUCGUAAUAAAUAAGAAGCAG	0.647
AGAAUCUUGGGACUGUUUUACUUAAUUGGUCAUUGAUAGCUUAACAAACAUGGAGAUGAGAUUAGAAAUCUUGACAUCAACAGGUAUUAAGCAGAAAAAACCCUGGCCACGUGUCUCCUG	0.148
CAGCGCCGAGGCCGCGGUUUCCCCCUGGGUGUGCUGAGCAGCAGCCAUGGGCAUCAAGUUUUUAGAAGUUAUCAAACCAUUCUGUGCAGUUCUACCAGAAAUUCAGAAACCGGAAAGGAA	1.27
CUUAAUGUUAAUAUUUUUGAAUAAAUGUAAAACCAUGGUCUGCUUUUGGUACUACAUGCAUUAAUAAAAGGUUAAGUUUUGUUUUCCACUGAAGUACUAUUUAACAUCUCAGAAAAAAAC	0.0944
GAUAAGAAAAACUUGUUGGAGACCCGCUUGCAUGUCACUGGUAGAGACCUGAGGUGUCAAAUAGCUGAAACUUUCGGAUUUCAAGAAAAUUAUAUCAAGAUCGUAAUAAAUAAGAAACAG	0.489
CACUCGAGGGCUGCCGUUUUCUGUUUCUCCCUGGGCUGCGGAAAGCCAGAAGAUUUUAUCUAGCUUAUACAAGGCUGCUGGUGUUCCCUCUUUUUUUCCACGAGGGUUUUUUUUCCAGCA	0.356
AAACAUCUGUCUUUAAGCAUUCCAAGCGAGAAUGCUGGGGUGAUCAUUGUUGCCCAUGUGCCUUCUGACUGAGCUUUAAUGCUGUUCAUCCUUGAUGCUUUCCUUCACUCCAGAAUUGUU	0.167
GAAACAUUUAAAUUUAAAGAAGCUGUUGUUCUAGGAAGCACGGACUUUCUAGAAGAUGAUAUAGAGAAAAUUGUAGAAGAACUGGGGAAAGAAUACAAGGGCAACGCCUACCAUCUGAUG	1.21

Series 3
Target: Prothrombin, mature alpha-thrombin (F2, Homo sapiens, UniProt P00734)
Technique: aptamer microarray, sandwich
Form: DNA with 2'F-ANA
Sample: in vitro
Concentration: 200 nM
Setting: whole 15-mer aptamer, many near background
Added: Cy3 exosite-II aptamer, 400 nM
Direction: higher = stronger binding
Oligonucleotide: GGTTGGTGTGGTTGG
Modification	mean fluorescence intensity
2'F-ANA at 2 3 7 8 9 10 12 14	268 a.u.
2'F-ANA at 1 2 5 7 8 10 14	44.8 a.u.
2'F-ANA at 4 6 9 10 12 13 14 15	57.1 a.u.
2'F-ANA at 1 3 6 7 8 9 10 11 12	120 a.u.
2'F-ANA at 2 7 8 9 12 13	767 a.u.
2'F-ANA at 2 3 4 10 13 14	206 a.u.
2'F-ANA at 3 4 5 6 7 8 12 13 14 15	59.2 a.u.
2'F-ANA at 1 3 5 6 7 8 9 11 13 14 15	48.3 a.u.
2'F-ANA at 1 2 7 9 10 13	113 a.u.
2'F-ANA at 4 6 7 8 9 13 14 15	76.8 a.u.
2'F-ANA at 4 8 10 12 14	61.5 a.u.
2'F-ANA at 1 2 4 5 9 12 14 15	62.2 a.u.
2'F-ANA at 1 3 5 7 8 9 12 13 14	48.4 a.u.
2'F-ANA at 2 9 12	799 a.u.
2'F-ANA at 1 4 10 11 12 14 15	74.3 a.u.
2'F-ANA at 2 5 8 9 11 12	162 a.u.
2'F-ANA at 1 5 7 9 10 12	49.3 a.u.
2'F-ANA at 2 3 4 6 7 14 15	251 a.u.

Series 4
Target: CCNB3, cyclin fold, Cln2 fusion (human)
Technique: yeast growth competition, sequencing
Sample: yeast
Setting: weak parent motif
Relative to: not given
Direction: higher = stronger binding
Starting sequence: PKN2 docking peptide (human); VSAVQKLDFSDTM; partner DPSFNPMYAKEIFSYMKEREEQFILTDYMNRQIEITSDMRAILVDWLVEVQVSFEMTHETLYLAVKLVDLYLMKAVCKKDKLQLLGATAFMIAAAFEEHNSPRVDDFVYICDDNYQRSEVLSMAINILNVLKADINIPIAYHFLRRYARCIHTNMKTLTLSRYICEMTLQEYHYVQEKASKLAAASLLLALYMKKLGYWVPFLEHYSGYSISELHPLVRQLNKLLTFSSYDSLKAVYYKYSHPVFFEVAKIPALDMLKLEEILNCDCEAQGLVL
Substitution	normalised enrichment score
VSAVQKLDFSDIM [T12I]	0.254
VSAVQLLDFSDTM [K6L]	0.385
VSAVQKLDFSDWM [T12W]	0.791
VSAVQKLDNSDTM [F9N]	0.226
VSAVQDLDFSDTM [K6D]	0.24
VSAVQQLDFSDTM [K6Q]	0.433
VSADQKLDFSDTM [V4D]	0.14
VSCVQKLDFSDTM [A3C]	0.193
VSAVQKLDWSDTM [F9W]	-0.201
VSAVQKLDFSWTM [D11W]	0.476
HSAVQKLDFSDTM [V1H]	0.198
VSAVQKLDFSDSM [T12S]	0.489
VSANQKLDFSDTM [V4N]	-0.144
VSAVQKLDFIDTM [S10I]	0.343
VSAVQKLDFSDNM [T12N]	0.16
VSHVQKLDFSDTM [A3H]	0.302
VSAVQKLDKSDTM [F9K]	0.267
VSAVQKLDFSDTA [M13A]	-0.00669
VSAVQKLDFSDQM [T12Q]	-0.0429
VSAVQKTDFSDTM [L7T]	0.19
VSAVQKLCFSDTM [D8C]	0.227
VSAVRKLDFSDTM [Q5R]	1.41
VSAVQKLDFSNTM [D11N]	0.364
VSAVQVLDFSDTM [K6V]	0.44

A few entries again (series 1):
Oligonucleotide	fitted relative affinity [z-score]
TCAAATACAAGTTTCTCACTGTGCTAG	0.73
TCACGTCTCTATCAAAAACTGTGCTAG	1.01
CACGGTATCGGACTGGGGACGTGCTAG	2.29
TTATGTTTCGACACTGGGTTAGTGCTA	3.74
ACTTGTATTTGTCCCTATTTGTGCTAG	1.46
GACGGTTCCGGTTTCGGGAGGTGCTAG	4.98
TCACTTTCCTTACTTCCCACTGTGCTA	2.47
